Measured values collected from several papers.
Every numbered part comes from another study and shows a few of its results, in no order.

Series 1
Target: Interferon regulatory factor 5, full length, phosphomimetic (IRF5, Homo sapiens, UniProt Q13568-2, residues 1-514, S451D/S453D/S456D/S462D)
Method: protein-binding microarray
Form: double-stranded DNA, one strand shown
Sample: in vitro
Concentration: 940 nM top
Notes: 60-bp whole probe
Added: salmon DNA 0.4 mg/ml
Reference: random background probes
Reading: higher = stronger binding
All sequences stand within: GCCTAGCAC … GTCTTGATTCGCTTGACGCTGCTG
`GACGGTTTCCTTTTCCTGATGTGCTAG` — result for “fitted relative affinity”: 1.99 z-score.
Under “fitted relative affinity”, `TCCCCTCTCTTTCCAACTCTGTGCTAG` is recorded as 1.12 z-score.
For `AAACCTATAGGGCCTGACTTCGTGCTA`, “fitted relative affinity” read -0.586 z-score.
`GACGGACTCGGGTATCGGGACGTGCTA`: “fitted relative affinity” 0.474 z-score.
For `GACGGTCTCGATCTCGGGACGTGCTAG`, “fitted relative affinity” read 2.37 z-score.
For `TCATAGCTTCCTTTCGCACTGTGCTAG`, “fitted relative affinity” read 0.679 z-score.
`TTAGGTTTCGGACGGGGTTAGTGCTAG` — result for “fitted relative affinity”: 7.76 z-score.
`GACGCTATCAGTATCGAGACGTGCTAG` — result for “fitted relative affinity”: 2 z-score.

Series 2
Target: Replicase polyprotein 1ab, polymerase (rep, Severe acute respiratory syndrome coronavirus 2, UniProt P0DTD1)
Effect on: enzyme activity
Mode: inhibitor
Concentration: 20 µM
The inhibition of `NC(=O)NC1NC(=O)NC1=O` (centres unmarked) is reported as -7.31%.
`CC(C)C(=O)OC[C@H]1O[C@@H](n2ccc(N)nc2=O)[C@](C)(F)[C@@H]1OC(=O)C(C)C` gave an inhibition of 0.3%.
With `N=C(N)NCCSSCCN=C(N)N` the inhibition was -5.31%.
`C[C@@]1(O)[C@H](O)[C@@H](CO)O[C@H]1n1ccc(N)nc1=O` has an inhibition of 0.65%.
With `CCc1nc(C)ccc1O` the inhibition was 0.97%.
The inhibition of `OC[C@H]1O[C@@H](OCCc2ccc(O)cc2)[C@H](O)[C@@H](O)[C@@H]1O` is reported as -0.34%.
`CC1(C)CCC[C@]2(C)[C@H]3CC(=O)O[C@]3(C)CC[C@@H]12` gave an inhibition of -7.37%.
The inhibition of `CC(C)[C@@H]1CC[C@@H](C)C[C@H]1O` is reported as 1.3%.
For `CCCN(CCC)C(=O)C(CCC(=O)O)NC(=O)c1ccccc1` (centres unmarked), the inhibition was 27.6%.
With `COc1ccc2nc(SCc3ncc(C)c(OC)c3C)[nH]c2c1` the inhibition was 0.25%.
The inhibition of `CC(C)Oc1ccc(C(=O)N[C@H](CNC(=O)CN(C)C)Cc2ccc(-c3cn4cccc([C@H](C)O)c4n3)cc2)cc1Cl` is reported as 9.84%.
For `COc1ccc([C@@H]2Sc3ccccc3N(CCN(C)C)C(=O)[C@@H]2OC(C)=O)cc1`, the inhibition was 0.35%.
For `CO/N=C(\C(=O)N[C@@H]1C(=O)N2C(C(=O)OCOC(=O)C(C)(C)C)=C(/C=C\c3scnc3C)CS[C@H]12)c1csc(N)n1`, the inhibition was -3.93%.
The inhibition of `O=C(O)c1ccc(O)c2ncccc12` is reported as 0.16%.
`CNCC/C=C/c1cccnc1` gave an inhibition of -1.09%.
For `CC(C)[C@@H](CS(=O)(=O)C(C)C)N1C(=O)[C@@](C)(CC(=O)O)C[C@H](c2cccc(Cl)c2)[C@H]1c1ccc(Cl)cc1`, the inhibition was -1.21%.
The inhibition of `NCc1ccccc1Sc1ccccc1CO` is reported as 3.36%.
`CC1=C(/C=C/C(C)=C/C=C/C(C)=C/C=O)C(C)(C)CCC1` gave an inhibition of 3.54%.
For `O/N=C/c1cc[n+](COC[n+]2ccc(/C=N/O)cc2)cc1`, the inhibition was -6.89%.
For `CCCCc1nc2cc(/C=C/C(=O)NO)ccc2n1CCN(CC)CC`, the inhibition was 1.48%.
For `COc1cc2ncc(-c3ccccc3)nc2cc1OC`, the inhibition was -8.55%.
With `CC(=O)Oc1ccccc1C(=O)Nc1ncc([N+](=O)[O-])s1` the inhibition was 6.46%.
With `CC(=O)Oc1cc2c(s1)CCN(C(C(=O)C1CC1)c1ccccc1F)C2` (centres unmarked) the inhibition was -6.14%.
For `O=C1c2ccccc2S(=O)(=O)N1CCCCN1CCN(c2ncccn2)CC1`, the inhibition was -10.5%.

Series 3
Target: Replicase polyprotein 1ab, main protease (rep, Severe acute respiratory syndrome coronavirus 2, UniProt P0DTD1)
Effect on: enzyme activity
Mode: inhibitor
Concentration: 20 µM
Notes: primary screen
`CN(C)CCNc1nc2cc(O)ccc2c2c1C(=O)c1ccccc1-2` gave an inhibition of 96.1%.
With `Nc1cc(-c2ccncc2)c[nH]c1=O` the inhibition was 56%.
`CCOC(=O)C1=C(N)Oc2ccc(Br)cc2[C@H]1[C@H](C#N)C(=O)OCC` has an inhibition of 44.3%.

Series 4
Cell line: HEK-293T/ACE2
Concentration: concentration not given
Time: 16 (unit not given)
Reference: vehicle
`CCCCc1ncc(/C=C(\Cc2cccs2)C(=O)O)n1Cc1ccc(C(=O)O)cc1` gave a viability of 103%.
With `N#Cc1ccccc1-c1cc(-c2ccccn2)cn(-c2ccccc2)c1=O` the viability was 100%.
`CC1=C(C(=O)O)N2C(=O)[C@@H](NC(=O)[C@H](N)c3ccc(O)cc3)[C@H]2SC1` has a viability of 101%.

Series 5
Target: Transcription factor SOX-2, HMG box (Sox2, Mus musculus, UniProt P48432, residues 41-119)
Chain of UniProt P48432 (41-119, looked up): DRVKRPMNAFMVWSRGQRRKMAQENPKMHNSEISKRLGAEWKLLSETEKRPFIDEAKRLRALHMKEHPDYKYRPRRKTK
Method: Spec-seq
Form: double-stranded DNA, one strand shown
Sample: in vitro
Concentration: not given
Notes: whole probe, mean of replicates
Reference: not given
Reading: lower = stronger binding
All sequences stand within: GAGTCGTCTCGTCAGCACCA … CCGTAGAGCACTCAGGTC
`TTCTA`: “relative binding energy” -0.975 ln ratio.
`TCCCT`: “relative binding energy” 0.973 ln ratio.
For `GGGTT`, “relative binding energy” read 1.33 ln ratio.
For `TGAAC`, “relative binding energy” read 0.112 ln ratio.
`TAACA` — result for “relative binding energy”: -0.414 ln ratio.

Series 6
Target: ATP-dependent RNA helicase DDX3X, helicase core (DDX3X, Homo sapiens, UniProt O00571, residues 132-607)
Chain of UniProt O00571 (132-607, looked up): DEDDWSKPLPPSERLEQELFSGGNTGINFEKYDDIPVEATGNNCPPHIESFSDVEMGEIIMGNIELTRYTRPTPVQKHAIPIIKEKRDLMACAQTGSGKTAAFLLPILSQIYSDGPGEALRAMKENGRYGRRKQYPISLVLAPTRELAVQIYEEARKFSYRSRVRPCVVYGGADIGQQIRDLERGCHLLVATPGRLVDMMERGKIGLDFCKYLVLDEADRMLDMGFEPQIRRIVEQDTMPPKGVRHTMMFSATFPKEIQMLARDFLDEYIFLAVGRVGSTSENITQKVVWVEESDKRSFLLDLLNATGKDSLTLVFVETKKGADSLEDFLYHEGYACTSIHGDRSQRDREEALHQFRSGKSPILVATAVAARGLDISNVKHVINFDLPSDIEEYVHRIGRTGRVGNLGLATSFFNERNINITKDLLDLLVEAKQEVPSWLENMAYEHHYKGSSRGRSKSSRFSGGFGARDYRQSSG
Method: RNA Bind-n-Seq
Form: RNA
Sample: in vitro
Concentration: 90 pmol
Notes: 4-mer, random 30-nt RNA, single round
Added: 3 µM iPr-DMDA-PatA, 2 mM ADP, 2 mM phosphate
Reference: input library
Reading: higher = stronger binding
`CUAC` gave a 4-mer enrichment of 0.962 fold.
For `UAUC`, the 4-mer enrichment was 1 fold.
With `GACA` the 4-mer enrichment was 1.1 fold.
`GAUC` has a 4-mer enrichment of 0.996 fold.
The 4-mer enrichment of `GCAC` is reported as 0.849 fold.
The 4-mer enrichment of `CCUG` is reported as 0.822 fold.
`AUAU` gave a 4-mer enrichment of 1.26 fold.

Repeated from above (series 1):
For `AAACCTATAGGGCCTGACTTCGTGCTA`, “fitted relative affinity” read -0.586 z-score.
`GACGGACTCGGGTATCGGGACGTGCTA`: “fitted relative affinity” 0.474 z-score.
For `GACGGTCTCGATCTCGGGACGTGCTAG`, “fitted relative affinity” read 2.37 z-score.
For `TCATAGCTTCCTTTCGCACTGTGCTAG`, “fitted relative affinity” read 0.679 z-score.
`TTAGGTTTCGGACGGGGTTAGTGCTAG` — result for “fitted relative affinity”: 7.76 z-score.
`GACGCTATCAGTATCGAGACGTGCTAG` — result for “fitted relative affinity”: 2 z-score.
